Measurements pooled from the literature.
Each line is one published result; not all experiments were run side by side. Values joined by “and” are separate records of one study, mostly repeats; a detail may differ.

SMILES	test	test system	conditions	how to read	quantity	result
CC1(COc2ccc3c(c2)ncn3-c2ccc3cccc(N4CCC(N)CC4)c3n2)COC1		human patients, recurrent/progressive HGG or DIPG, serum	oral, 220 mg/m^2, day 28, median		CL/F	16 L/h/m²
CC(C)Nc1nc2cc(Cl)c(Cl)cc2n1[C@H]1O[C@@H](CO)[C@H](O)[C@@H]1O	population PK model	human CMV transplant recipients	oral, dose not given	reference: other individuals	CL/F reduction	32%
Cn1cncc1[C@@](N)(c1ccc(Cl)cc1)c1ccc2c(c1)c(-c1cccc(Cl)c1)cc(=O)n2C		human patients	oral, 300 mg/m2, first dose, cycle 1, expanded cohort, median		CL/F	733 mL/min/m2
C[C@@H](Oc1ccc(S(C)(=O)=O)cc1C(=O)N1C[C@@H]2C[C@]2(c2cc(C(F)(F)F)on2)C1)C(F)(F)F		healthy young humans	oral, 10 mg single dose		CL/F	5.14 L/h
Cn1cc(-c2cn3nccc3c(-c3cnn([C@]4(CC#N)C[C@@H](C#N)C4)c3)n2)cn1		healthy human fed	200 mg twice daily, day 10		CL/F	99.5 L/h
CCn1cc(C(=O)N2CCOCC2)c(=O)c2cc(NC3Cc4ccccc4C3)cnc21		human, fed	oral suspension, 2000 mg/day twice daily, day 8, arithmetic mean		CL/F	86.1 L/h
C#C[C@]1(CO)O[C@@H](n2cnc3c(N)nc(F)nc32)C[C@@H]1O		human, plasma	oral, 100 mg, single dose, geometric mean		CL/F	29.3 L/h
N#Cc1ccc2c(c1)[C@H]1CCCN(C(=O)c3ccc4[nH]cnc4c3)[C@H]1C2		human, plasma	oral, 240 mg once daily, day 28 steady state		CL/F steady state	82.2 mL/min
Cc1ncnc2c1ccn2[C@@H]1C[C@H](Oc2cc(C(F)F)c(F)c3c2CNCC3)[C@@H](O)[C@H]1O		human	oral, 1 mg twice daily		CL/F	10.1 L/h and 4.97 L/h
Cn1ncnc1[C@H]1c2n[nH]c(=O)c3cc(F)cc(c23)N[C@@H]1c1ccc(F)cc1		human patients, plasma	oral, 600 µg/m2 twice daily day 1, day 5, dose level DL3, median, with: temozolomide 20 mg/m2 daily days 2-6		CL/F at steady state	4.5 L/h/m2

A few entries again:
SMILES	test	test system	conditions	how to read	quantity	result
Cn1ncnc1[C@H]1c2n[nH]c(=O)c3cc(F)cc(c23)N[C@@H]1c1ccc(F)cc1		human patients, plasma	oral, 600 µg/m2 twice daily day 1, day 5, dose level DL3, median, with: temozolomide 20 mg/m2 daily days 2-6		CL/F at steady state	4.5 L/h/m2
